Published values from different studies.
Every numbered part comes from another study and shows a few of its results, in no order.
Sequence of UniProt P68400 (whole entry, looked up): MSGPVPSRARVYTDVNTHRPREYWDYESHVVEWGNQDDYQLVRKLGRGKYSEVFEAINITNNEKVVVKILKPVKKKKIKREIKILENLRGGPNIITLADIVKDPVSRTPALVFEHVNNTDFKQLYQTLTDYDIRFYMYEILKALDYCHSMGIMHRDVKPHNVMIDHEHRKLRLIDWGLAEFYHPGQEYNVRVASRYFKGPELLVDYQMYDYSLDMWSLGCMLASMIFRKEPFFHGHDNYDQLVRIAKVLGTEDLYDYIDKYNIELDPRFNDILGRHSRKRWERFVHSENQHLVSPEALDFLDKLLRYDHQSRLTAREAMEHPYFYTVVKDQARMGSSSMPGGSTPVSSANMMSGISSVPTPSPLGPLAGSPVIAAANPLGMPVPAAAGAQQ
Sequence of UniProt O14920 (whole entry, looked up): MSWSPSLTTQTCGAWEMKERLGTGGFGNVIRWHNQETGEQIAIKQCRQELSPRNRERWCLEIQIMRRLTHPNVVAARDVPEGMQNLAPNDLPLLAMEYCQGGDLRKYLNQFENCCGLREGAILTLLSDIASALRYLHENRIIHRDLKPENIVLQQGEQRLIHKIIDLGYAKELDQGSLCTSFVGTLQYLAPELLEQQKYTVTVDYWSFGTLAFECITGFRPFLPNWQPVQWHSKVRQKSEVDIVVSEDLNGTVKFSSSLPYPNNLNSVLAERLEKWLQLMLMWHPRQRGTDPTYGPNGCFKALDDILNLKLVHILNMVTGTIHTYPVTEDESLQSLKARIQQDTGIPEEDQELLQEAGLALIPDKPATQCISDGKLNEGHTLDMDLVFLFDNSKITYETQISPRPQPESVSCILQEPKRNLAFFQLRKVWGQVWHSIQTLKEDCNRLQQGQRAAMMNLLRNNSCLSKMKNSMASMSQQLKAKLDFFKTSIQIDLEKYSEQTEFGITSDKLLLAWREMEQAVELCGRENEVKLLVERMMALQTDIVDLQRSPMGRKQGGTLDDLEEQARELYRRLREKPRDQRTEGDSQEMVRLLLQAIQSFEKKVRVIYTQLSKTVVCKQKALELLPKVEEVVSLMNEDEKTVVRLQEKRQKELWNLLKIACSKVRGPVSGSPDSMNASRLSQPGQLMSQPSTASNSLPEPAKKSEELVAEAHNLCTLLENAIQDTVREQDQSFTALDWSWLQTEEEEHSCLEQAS
Sequence of UniProt P10721 (whole entry, unmodified, looked up): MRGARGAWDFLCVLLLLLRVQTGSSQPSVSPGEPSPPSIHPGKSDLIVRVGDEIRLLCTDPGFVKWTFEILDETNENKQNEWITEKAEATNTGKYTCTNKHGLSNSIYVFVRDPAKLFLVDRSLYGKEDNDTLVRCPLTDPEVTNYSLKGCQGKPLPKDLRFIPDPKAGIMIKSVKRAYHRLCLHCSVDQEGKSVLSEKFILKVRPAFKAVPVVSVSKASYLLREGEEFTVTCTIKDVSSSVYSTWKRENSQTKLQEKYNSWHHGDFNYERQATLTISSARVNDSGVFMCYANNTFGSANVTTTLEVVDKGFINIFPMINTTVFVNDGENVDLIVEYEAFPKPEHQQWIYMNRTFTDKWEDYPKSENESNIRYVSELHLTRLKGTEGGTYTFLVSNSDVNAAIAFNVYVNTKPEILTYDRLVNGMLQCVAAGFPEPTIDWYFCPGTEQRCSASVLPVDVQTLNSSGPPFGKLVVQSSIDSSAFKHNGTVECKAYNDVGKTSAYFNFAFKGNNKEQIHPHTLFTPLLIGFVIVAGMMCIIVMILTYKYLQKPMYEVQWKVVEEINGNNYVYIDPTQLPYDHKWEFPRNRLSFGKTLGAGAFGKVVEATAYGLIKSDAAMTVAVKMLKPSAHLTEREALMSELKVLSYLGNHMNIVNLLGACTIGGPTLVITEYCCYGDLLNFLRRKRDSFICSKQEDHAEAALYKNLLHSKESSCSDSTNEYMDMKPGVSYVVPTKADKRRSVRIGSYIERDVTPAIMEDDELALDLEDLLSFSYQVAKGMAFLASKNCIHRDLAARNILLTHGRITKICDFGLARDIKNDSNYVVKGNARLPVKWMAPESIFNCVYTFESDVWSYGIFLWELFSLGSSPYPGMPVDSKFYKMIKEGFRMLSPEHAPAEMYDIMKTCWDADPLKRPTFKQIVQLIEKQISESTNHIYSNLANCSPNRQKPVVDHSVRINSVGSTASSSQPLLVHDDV
Sequence of UniProt O15146 (whole entry, looked up): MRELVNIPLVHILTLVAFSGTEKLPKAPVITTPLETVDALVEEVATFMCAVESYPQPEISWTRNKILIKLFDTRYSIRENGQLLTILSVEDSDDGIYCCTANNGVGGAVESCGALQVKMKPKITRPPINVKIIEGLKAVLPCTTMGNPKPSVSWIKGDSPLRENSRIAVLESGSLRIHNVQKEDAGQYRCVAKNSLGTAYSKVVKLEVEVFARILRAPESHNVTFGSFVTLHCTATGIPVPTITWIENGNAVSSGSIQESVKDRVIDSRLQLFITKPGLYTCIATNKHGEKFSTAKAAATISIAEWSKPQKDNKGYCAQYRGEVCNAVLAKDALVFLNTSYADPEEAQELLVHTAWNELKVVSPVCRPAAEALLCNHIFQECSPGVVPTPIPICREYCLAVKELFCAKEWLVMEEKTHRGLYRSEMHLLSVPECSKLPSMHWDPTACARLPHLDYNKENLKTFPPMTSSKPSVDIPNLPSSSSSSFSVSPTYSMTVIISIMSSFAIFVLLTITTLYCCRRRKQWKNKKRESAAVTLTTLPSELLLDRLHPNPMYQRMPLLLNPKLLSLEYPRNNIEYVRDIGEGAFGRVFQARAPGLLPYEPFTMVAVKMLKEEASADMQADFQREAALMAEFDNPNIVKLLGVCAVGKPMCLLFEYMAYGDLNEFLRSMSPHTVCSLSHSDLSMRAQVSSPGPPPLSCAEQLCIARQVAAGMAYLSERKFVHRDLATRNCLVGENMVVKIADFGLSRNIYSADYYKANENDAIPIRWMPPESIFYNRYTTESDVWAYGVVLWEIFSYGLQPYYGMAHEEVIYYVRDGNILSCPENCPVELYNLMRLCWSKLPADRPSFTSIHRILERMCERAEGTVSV
Sequence of UniProt Q8WTQ7 (whole entry, looked up): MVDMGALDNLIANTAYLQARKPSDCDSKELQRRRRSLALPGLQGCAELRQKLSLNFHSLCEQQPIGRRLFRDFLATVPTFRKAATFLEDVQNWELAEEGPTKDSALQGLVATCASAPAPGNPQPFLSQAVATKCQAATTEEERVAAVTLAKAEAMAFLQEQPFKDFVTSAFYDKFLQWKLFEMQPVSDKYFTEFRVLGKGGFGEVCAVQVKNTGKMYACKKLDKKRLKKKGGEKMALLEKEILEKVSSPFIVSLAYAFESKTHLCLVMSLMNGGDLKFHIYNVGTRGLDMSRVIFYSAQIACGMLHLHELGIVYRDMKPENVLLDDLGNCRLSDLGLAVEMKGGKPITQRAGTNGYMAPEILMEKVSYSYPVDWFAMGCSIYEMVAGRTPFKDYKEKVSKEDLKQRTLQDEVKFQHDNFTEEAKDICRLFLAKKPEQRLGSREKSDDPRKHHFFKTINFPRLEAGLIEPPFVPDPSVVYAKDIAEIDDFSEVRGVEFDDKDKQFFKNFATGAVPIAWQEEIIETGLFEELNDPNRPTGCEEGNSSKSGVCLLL
Sequence of UniProt Q9BXA7 (whole entry, looked up): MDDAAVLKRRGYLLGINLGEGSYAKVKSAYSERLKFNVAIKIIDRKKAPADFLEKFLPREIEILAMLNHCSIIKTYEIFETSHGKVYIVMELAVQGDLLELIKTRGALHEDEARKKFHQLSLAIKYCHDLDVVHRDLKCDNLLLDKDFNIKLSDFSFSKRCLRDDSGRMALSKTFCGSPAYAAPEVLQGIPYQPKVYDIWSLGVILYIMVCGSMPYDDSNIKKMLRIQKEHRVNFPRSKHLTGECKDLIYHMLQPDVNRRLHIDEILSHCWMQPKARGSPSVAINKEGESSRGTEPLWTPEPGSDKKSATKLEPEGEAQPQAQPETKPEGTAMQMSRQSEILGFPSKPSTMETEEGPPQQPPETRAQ
Sequence of UniProt Q9NY57 (whole entry, looked up): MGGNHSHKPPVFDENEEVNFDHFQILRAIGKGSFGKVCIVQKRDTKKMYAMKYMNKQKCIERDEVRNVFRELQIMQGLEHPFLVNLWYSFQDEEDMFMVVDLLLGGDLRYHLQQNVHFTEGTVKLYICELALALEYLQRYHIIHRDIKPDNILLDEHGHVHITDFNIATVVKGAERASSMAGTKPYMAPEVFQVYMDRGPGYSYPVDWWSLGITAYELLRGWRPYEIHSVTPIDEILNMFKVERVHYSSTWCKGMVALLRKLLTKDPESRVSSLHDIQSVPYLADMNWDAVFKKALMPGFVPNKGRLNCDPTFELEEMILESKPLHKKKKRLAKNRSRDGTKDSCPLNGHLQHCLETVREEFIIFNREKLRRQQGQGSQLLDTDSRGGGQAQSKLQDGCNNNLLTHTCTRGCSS

Series 1
Target: Serine/threonine-protein kinase PAK 4 (PAK4, Homo sapiens, UniProt O96013)
Sequence of UniProt O96013 (whole entry, looked up): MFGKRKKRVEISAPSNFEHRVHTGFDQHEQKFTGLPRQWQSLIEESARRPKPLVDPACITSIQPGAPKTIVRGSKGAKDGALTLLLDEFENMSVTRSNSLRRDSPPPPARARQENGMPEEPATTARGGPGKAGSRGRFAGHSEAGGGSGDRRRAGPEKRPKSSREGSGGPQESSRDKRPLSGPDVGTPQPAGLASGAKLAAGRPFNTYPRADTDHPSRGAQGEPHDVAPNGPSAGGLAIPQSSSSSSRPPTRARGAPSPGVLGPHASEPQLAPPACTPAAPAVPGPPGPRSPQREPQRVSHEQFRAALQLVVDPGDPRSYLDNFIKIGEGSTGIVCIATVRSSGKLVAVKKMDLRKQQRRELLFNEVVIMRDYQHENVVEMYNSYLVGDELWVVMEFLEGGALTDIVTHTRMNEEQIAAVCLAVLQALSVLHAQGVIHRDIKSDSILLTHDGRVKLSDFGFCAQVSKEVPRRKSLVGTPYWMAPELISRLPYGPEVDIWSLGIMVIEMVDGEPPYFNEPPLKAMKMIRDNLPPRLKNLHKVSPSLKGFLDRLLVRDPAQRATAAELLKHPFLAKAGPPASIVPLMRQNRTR
Read-out: enzyme activity
Mode: inhibitor
Tested at: 0.5 µM
Baseline: control
Structure (SMILES)	remaining activity [%]
O=C1Cc2c([nH]c3ccc(Br)cc23)-c2ccccc2N1	92.2
O=C1Nc2ccc(Br)cc2/C1=C/c1cc2c([nH]1)CCCC2	76.8
c1ccc(-c2n[nH]c3c2oc2ccccc23)cc1	112
O=c1cc(N2CCOCC2)oc2c(-c3ccccc3)cccc12	92.8
Cc1cc(Nc2cc(N3CCN(C)CC3)nc(Sc3ccc(NC(=O)C4CC4)cc3)n2)[nH]n1	85.4
O=Nc1c(-c2c(O)[nH]c3cc(Br)ccc23)[nH]c2ccccc12	95.3
Cc1ccc(S(=O)(=O)/C=C/C#N)cc1	91.9
O=C1NC(=O)c2c1c1c3ccccc3[nH]c1n1cncc21	97.1
N#Cc1cnc2cnc(NCc3cccnc3)cc2c1Nc1ccc(F)c(Cl)c1	85.4
O=C1Nc2ccccc2/C1=C\c1c(Cl)[nH]c2ccccc12	104
c1ccc2c(-c3ccncc3)c[nH]c2c1	96.7

Series 2
Compound: Cn1nc(C(=O)NCc2ccc(C(=O)O)cc2)cc1-c1ccc2[nH]ccc2c1
Read-out: cell-free assay
Method: competition with immobilised ligand
Tested at: 0.1 µM
target	remaining binding
Muscle, skeletal receptor tyrosine-protein kinase (MUSK, Homo sapiens, UniProt O15146)	95%
Tyrosine-protein kinase ABL1, phosphorylated (ABL1, Homo sapiens, UniProt P00519, H396P)	84%
Casein kinase II subunit alpha (CSNK2A1, Homo sapiens, UniProt P68400)	68%
MAP kinase-activated protein kinase 5 (MAPKAPK5, Homo sapiens, UniProt Q8IW41)	89%
Tyrosine-protein kinase receptor UFO (AXL, Homo sapiens, UniProt P30530)	89%
Serine/threonine-protein kinase N1 (PKN1, Homo sapiens, UniProt Q16512)	90%
Phosphatidylinositol 4,5-bisphosphate 3-kinase catalytic subunit gamma isoform (PIK3CG, Homo sapiens, UniProt P48736)	64%
Macrophage colony-stimulating factor 1 receptor, autoinhibited (CSF1R, Homo sapiens, UniProt P07333)	98%
Mast/stem cell growth factor receptor Kit (KIT, Homo sapiens, UniProt P10721, D816V)	91%
Ribosomal protein S6 kinase alpha-2, C-terminal kinase domain (RPS6KA2, Homo sapiens, UniProt Q15349)	98%
Rhodopsin kinase GRK7 (GRK7, Homo sapiens, UniProt Q8WTQ7)	100%
Tyrosine-protein kinase JAK2, JH1 (JAK2, Homo sapiens, UniProt O60674)	90%
Mitogen-activated protein kinase kinase kinase kinase 4 (MAP4K4, Homo sapiens, UniProt O95819)	92%
Inhibitor of nuclear factor kappa-B kinase subunit beta (IKBKB, Homo sapiens, UniProt O14920)	93%
Ribosomal protein S6 kinase alpha-4, C-terminal kinase domain (RPS6KA4, Homo sapiens, UniProt O75676)	81%
Testis-specific serine/threonine-protein kinase 1 (TSSK1B, Homo sapiens, UniProt Q9BXA7)	100%
Serine/threonine-protein kinase 32B (STK32B, Homo sapiens, UniProt Q9NY57)	100%
Tyrosine-protein kinase Mer (MERTK, Homo sapiens, UniProt Q12866)	40%
Ephrin type-B receptor 6 (EPHB6, Homo sapiens, UniProt O15197)	96%

Series 3
Organism: Sarcocystis neurona
Read-out: parasite growth
Tested at: 10 µM
Time: 96 h
Setting: second screen
Baseline: untreated
SMILES	log2 fold change
CN(C)CCOc1ccc(/C(=C(/CCCl)c2ccccc2)c2ccccc2)cc1	0.41
CN1CCN(C2=Nc3cc(Cl)ccc3Nc3ccccc32)CC1	0.57
c1ccc2c(CC3=NCCN3)cccc2c1	0.0154
O=C(O)COCCN1CCN([C@H](c2ccccc2)c2ccc(Cl)cc2)CC1	0.55
CN(C)CCOC(c1ccccc1)c1ccccc1	0.68
C=C(CC)C(=O)c1ccc(OCC(=O)O)c(Cl)c1Cl	-0.18
O=C1CN2Cc3c(ccc(Cl)c3Cl)N=C2N1	0.28
C[C@@H]1CN(CCCn2c3ccccc3c3ccccc32)C[C@H](C)N1	-0.0036
CN(C)C(=O)C(CCN1CCC(O)(c2ccc(Cl)cc2)CC1)(c1ccccc1)c1ccccc1	-0.46

Mixed results
Compound	cell line	test	conditions	quantity	value
CC(C)(C)c1cnc(CSc2cnc(NC(=O)C3CCN(CCCCSc4cccc5c4C(=O)N(C4CCC(=O)NC4=O)C5=O)CC3)s2)o1 (stereo not shown)	HH	CCK-8	150 nM	viability	22.9%

A few entries again (series 2):
target	remaining binding
Casein kinase II subunit alpha (CSNK2A1, Homo sapiens, UniProt P68400)	68%
Mast/stem cell growth factor receptor Kit (KIT, Homo sapiens, UniProt P10721, D816V)	91%
